# Measurements pooled from the literature.
# Lines come from different studies, so protocols differ.
Structure (SMILES),cell line,read-out,method,time,setting,GI50
[Cl-].[Cl-].[Ru+2].c1ccc(-c2ccccn2)nc1.c1ccc(-c2ccccn2)nc1.c1ccc2cc3nc4c5cccnc5c5ncccc5c4nc3cc2c1,SK-MEL-28,cell growth,SRB,,"cool white visible light, 1% O2 hypoxia",0.201 µM
Cc1cccc(NC(=O)CC(=O)Nc2ccc3[nH]nc(/C=C/c4ccccn4)c3c2)c1,BaF3,cell growth or viability,CCK-8,,,> 10 µM
COc1ncccc1CN(C(=O)OCc1ccc([N+](=O)[O-])cc1F)[C@H]1[C@@H](C)[C@@H]1c1ccccc1 (racemic),THP-1 wild type cells,,MTS,72 h,,> 50 µM
CCN(C(=O)c1cc(F)ccc1Oc1nncnc1N1CCC2(C1)CN([C@H](CCCN(C)CCOC)C(C)C)C2)C(C)C,EJ-28,cell growth or viability,,7 days,,> 10 µM
COc1ncccc1CN(C(=O)OCc1ccc([N+](=O)[O-])cc1F)[C@H]1C[C@@H]1c1ccccc1 (racemic),THP-1 wild type cells,,MTS,72 h,,> 50 µM
O=C(Nc1ccc(Cl)c(C(F)(F)F)c1)C1(C(=O)Nc2ccc3c(/C=C/c4ccccn4)n[nH]c3c2)CC1,BaF3,cell growth or viability,CCK-8,,,> 10 µM
COc1ccc(O)cc1-c1c[nH]c2ncc(-c3cncc(C(=O)N(C)C)c3)cc12,BaF3,cell growth or viability,,,,> 1 µM
NCC(=O)Nc1ccc(Sc2ccc3c(/C=C/c4ccccn4)n[nH]c3c2)cc1,BaF3,cell growth or viability,CCK-8,,,3.39 µM
COc1ccccc1-c1c[nH]c2ncc(-c3cncc(C(=O)N(C)C)c3)cc12,BaF3,cell growth or viability,,,,> 1 µM
